Published values collected from several papers.
Compare with care: the assays were run in different laboratories.
Target: Hormonally up-regulated neu tumor-associated kinase (HUNK, Homo sapiens, UniProt P57058)

With `Cc1cnc2nc1Nc1cccc(c1)COC/C=C/COCc1cc(ccc1OCCN1CCOCC1)N2` the remaining binding was 84% (binding; 0.1 µM).
With `CCN1CCN(Cc2ccc(C(=O)Nc3ccc(C)c(NCc4cnc5[nH]ccc5c4OC)c3)cc2C(F)(F)F)CC1` the remaining binding was 100% (binding, competition with immobilised ligand; 1 µM).
`CNC(=O)C1CCN(c2cc(C)c(F)cc2NC(=O)c2ccc(-c3cc(O)ccc3C)c(C)c2)CC1` gave a remaining binding of 80% (binding, competition with immobilised ligand; 1 µM).
With `C=CC(=O)N1CCc2ccc(-n3c(=O)ccc4cnc5ccc(-c6cnn(C)c6)cc5c43)cc21` the remaining binding was 72% (KINOMEscan; 1 µM; relative to: DMSO control).
`CN1CCN(Cc2ccc(-c3ccc(CO[C@H]4CCC[C@@H]4NC(=O)c4cc(-c5cnn(C)c5)cnc4N)cc3)cc2)CC1` gave an inhibition of -19% (enzyme activity, inhibitor; 0.1 µM).
`COc1cc(Nc2nccc(-c3cnn4nc(OC)ccc34)n2)cc(C(F)(F)F)c1` has a remaining binding of 100% (binding, competition with immobilised ligand; 1 µM).
For `C=CC(=O)N1Cc2nc(-c3cc(-c4cc(Cl)cnc4Cl)c(F)cc3F)n(-c3ccncn3)c2C1`, the inhibition was -1% (cell-free assay, inhibitor; 1 µM).
For `CCn1cc(C(=O)O)c(=O)c2c(N)c(F)c(NC3CCCCC3)cc21`, the inhibition was 6.3% (kinase activity; 0.1 µM, added: ATP at Km).
For `C=CC(=O)N1CCCC(n2c(=O)c3ncccc3n(Cc3ccc(Oc4ccccc4)cc3)c2=O)C1` (stereo not drawn), the remaining binding was 100% (cell-free assay, competition with immobilised ligand; 1 µM).
For `CNC1C[S+]2CC[S+]3CC[S+](C1)[Ru-4]321([N]=C=S)[n]2c3ccc(OC)cc3c3c4c(c5cc(F)c[n+]1c5c32)C(=O)NC4=O` (stereo not drawn), the remaining binding was 85% (KinomeScan; 0.1 µM; relative to: untreated).
The remaining binding of `Cc1ccc(-c2c(/C=C(\C#N)C(=O)NC(C)C)n(CCCO)c3ncnc(N)c23)cc1` is reported as 100% (cell-free assay, competition with immobilised ligand; 1 µM).
The remaining activity of `COc1cc(Nc2nc(C)cc(-c3cnn4nc(OC)ccc34)n2)cc(C(F)(F)F)c1` is reported as 99% (inhibitor; 1 µM; relative to: control).
`Nc1ncc2c(n1)-c1c([nH]c3ccc(C4=CCOCC4)cc13)CCC2` gave a remaining binding of 61% (binding, competition with immobilised ligand; 1 µM).
With `COc1c(Cl)cccc1Nc1c(-c2ccncc2C#C[C@@]2(C)CCCN2C(=O)/C=C/CN(C)C)[nH]c2c1C(=O)NCC2` the remaining binding was 91% (binding, competition with immobilised ligand; 3 µM).
`CC(C)=CC1OC(C)(C)C2C=C3C(=O)C(Cl)=CC(O)C3C3C(O)C4OC4C(=O)C132` (stereo not drawn) gave a remaining binding of 82% (cell-free assay, competition with immobilised ligand; 10 µM).

For quick reference, copied from above:
With `C=CC(=O)N1CCc2ccc(-n3c(=O)ccc4cnc5ccc(-c6cnn(C)c6)cc5c43)cc21` the remaining binding was 72% (KINOMEscan; 1 µM; relative to: DMSO control).
`CN1CCN(Cc2ccc(-c3ccc(CO[C@H]4CCC[C@@H]4NC(=O)c4cc(-c5cnn(C)c5)cnc4N)cc3)cc2)CC1` gave an inhibition of -19% (enzyme activity, inhibitor; 0.1 µM).
`COc1cc(Nc2nccc(-c3cnn4nc(OC)ccc34)n2)cc(C(F)(F)F)c1` has a remaining binding of 100% (binding, competition with immobilised ligand; 1 µM).
